Results of several laboratories.
Parts stem from different laboratories: compare values within a part only. Positions count from the first letter of the parent shown.

Sample 1
Target: Histone acetyltransferase KAT6A, winged helix 1, GST fusion (KAT6A, Homo sapiens, UniProt Q92794, residues 1-85)
Method: protein binding microarray
Molecule type: double-stranded DNA, one strand shown
Matrix: in vitro
Concentration: not given
Notes: 8-mer, flanks averaged, mean of 2 arrays, mostly near background
Baseline: not given
Reading: higher = stronger binding
Endpoint: E-score
Construct (chain): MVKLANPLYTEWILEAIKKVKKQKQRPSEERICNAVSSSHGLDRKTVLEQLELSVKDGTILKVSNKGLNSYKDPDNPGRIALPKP
CGTTTTCC: -0.00879
TACAGCTA: -0.215
AGATGCAA: -0.175
CCACTCGG: -0.12
CCGCCGTA: 0.448
GAGGGGTA: -0.0837
ACTCAAAC: -0.119
AGGACGCA: 0.174
AAGAAAGC: -0.0138
AAGGAGGC: -0.033
CAATACGA: -0.0722
GGTGTTCA: -0.0542
ACGGTTGG: 0.0851
CTTGGACA: -0.179
CCTGCATA: -0.0465
GAGTCCGA: -0.0105
AGTTGATC: -0.146
CGGGACTA: 0.205
ACGCATTG: 0.189
GCCCTTCA: -0.11
AGTGTGGA: -0.163
CGGTGGAA: 0.063
CAATCATG: -0.206

Sample 2
Target: Prothrombin, mature alpha-thrombin (F2, Homo sapiens, UniProt P00734)
Method: aptamer microarray, sandwich
Molecule type: DNA with 2'F-ANA
Matrix: in vitro
Concentration: 200 nM
Notes: whole 15-mer aptamer, many near background
With: Cy3 exosite-II aptamer, 400 nM
Reading: higher = stronger binding
Endpoint: mean fluorescence intensity
Sequence: GGTTGGTGTGGTTGG
2'F-ANA at 2 3 6 8 9 12 13: 728 a.u.
2'F-ANA at 1 2 6 7 8 9 10 12 13 14: 51.1 a.u.
2'F-ANA at 2 5 6 8 10 13 15: 82 a.u.
2'F-ANA at 1 3 5 7 9 10 11 13: 62.9 a.u.
2'F-ANA at 1 2 6 7 15: 180 a.u.
2'F-ANA at 4 5 10 11 15: 46.9 a.u.
2'F-ANA at 2 3 6 7 8 9 11 12 13 14: 322 a.u.
2'F-ANA at 1 2 7 13 14: 64 a.u.
2'F-ANA at 2 3 4 6 7 8 9 10 11 13 14 15: 246 a.u.
2'F-ANA at 1 4 5 6 7 9 11 12 13 14 15: 49.2 a.u.
2'F-ANA at 1 2 4 5 6 10 12 14: 47.1 a.u.
2'F-ANA at 1 3 10 12 13 14: 60.7 a.u.
2'F-ANA at 1 2 3 4 7 8 9 10: 62.6 a.u.
2'F-ANA at 2 3 5 7 8 9 10 12 15: 67.6 a.u.
2'F-ANA at 1 2 4 5 7 8 11: 102 a.u.
2'F-ANA at 1 4 5 9 12 14: 43.3 a.u.
2'F-ANA at 2 3 6 10 11 12 13: 375 a.u.
2'F-ANA at 2 3 5 7 9 11 12 13: 137 a.u.
2'F-ANA at 4 5 8 12 13 14: 46 a.u.
2'F-ANA at 1 2 4 6 7 8 9 10 11 12 13 15: 52.8 a.u.
2'F-ANA at 3 4 5 7 10 11 13: 51.1 a.u.
2'F-ANA at 3 5 7 9 12 15: 224 a.u.
2'F-ANA at 4 8 10 11 12: 105 a.u.
2'F-ANA at 1 2 8 11 13: 146 a.u.
2'F-ANA at 1 4 9 10 14 15: 74.9 a.u.

Sample 3
Target: CCNB1, cyclin fold, Cln2 fusion (human)
Method: yeast growth competition, sequencing
Matrix: yeast
Notes: weak parent motif
Baseline: not given
Reading: higher = stronger binding
Endpoint: normalised enrichment score
Starting sequence: SLBP docking peptide (human); ARYKRKLLINDFG
Y3I: 0.0748
K6W: 0.59
A1F: 0.17
R5S: 0.998
N10Y: 0.356
F12L: 1.21
D11Y: 1.04
K6L: 1.02
Y3M: 0.873
Y3V: 0.903
K6M: -0.368
L7M: 0.989
A1G: 0.329
A1Y: 0.551
L7W: -0.0927
L7G: 0.832
Y3R: 0.603
R5P: 0.0146
R2S: 0.0299
I9D: -0.148
R2Y: 1.52
Y3G: 0.572
R2D: 0.797
K6P: -0.159
G13M: 1.03

Sample 4
Target: Fragile X messenger ribonucleoprotein 1, C-terminal low-complexity region (Fmr1, Mus musculus, UniProt P35922)
Method: RNA Bind-n-Seq
Molecule type: RNA
Matrix: in vitro
Concentration: 200 nM
Notes: whole 134-nt RNA, ends assumed
With: 150 mM LiCl
Baseline: input library
Reading: higher = stronger binding
Endpoint: log2 enrichment
Library: 7-deaza-guanosine replaces G
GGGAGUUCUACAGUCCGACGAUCCAAGUCCUGUGCUACACAUCGUAUGUACCGAAUCGGUGGUUUUUUUGGAAAAAGGAAAGUAUUAUGUUACGCCGUUCGGAUCUGCACUUCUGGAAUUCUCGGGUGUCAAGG: -1.14
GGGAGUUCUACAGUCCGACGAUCCCUCAAGUCCUGUGCUACACAUCGUAUGUACCGAAUCGGGGUGGUGGUGGGGAAAGUAUUAUGUUACGCCGUUCGGAUCUGCACUUCCAGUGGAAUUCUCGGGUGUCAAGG: -0.31
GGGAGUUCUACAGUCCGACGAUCACCAUGCAGGUGGGCAUCUUUGGGAAGUGGGGCAAGGGGGGGAUAGGGAGGGGGGUAACACUUUGGGAACAGGUGGUCCCAGGUCUUUUCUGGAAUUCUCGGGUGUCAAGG: 1.16
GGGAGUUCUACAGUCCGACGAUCGCAGGAAGUAAAAACAAAUGGAAAUGCUUCAAAUAGUGGCAGGGGUGGGGGUUGCUAAGGAAAGGGUGGGAUGGGAGUGGGUAAAGAGUUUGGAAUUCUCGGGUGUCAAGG: 1.28
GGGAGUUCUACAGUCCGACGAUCUGGCCCUGGUGGCAUGCGGGGAGGAAGUGGUGGCCUCAUGGAUCGUGGUGGUCCCGGUGGAAUGUUCAGAGGUGGCCGUGGUGGAGACAGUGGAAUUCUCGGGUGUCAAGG: -0.127
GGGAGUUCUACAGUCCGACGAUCUCAAGUCCUGUGCUACACAUCGUAUGUACCGAAUCGGGAAAGGGGAAAGGAAAGGAAAGUAUUAUGUUACGCCGUUCGGAUCUGCACUUCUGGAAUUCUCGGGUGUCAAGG: -1.84
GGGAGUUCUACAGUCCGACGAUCUUGCUAAUCUAUAAAUUUUUUUUAUAUGAAAUAGCUCAUAGUCGGAAGCCGGCACCCUCAAAUGAGCCCGAAUAUCUAUGUAAAUGGAUGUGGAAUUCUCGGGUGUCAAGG: -3.6
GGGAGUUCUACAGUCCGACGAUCUGGCCCUGGUGGCAUGCGGGGAGGAAGAGGUGGCCUCAUGGAUCGUGGUGGUCCCGGUGGAAUGUUCAUAGGUGGCCGUGGUGGAGACAGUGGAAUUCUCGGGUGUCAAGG: -0.818
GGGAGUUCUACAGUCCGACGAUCCAAGUCCUGUGCUACACAUCGUAUGUACCGAAUCGGGGAAGGGAAGGGGAAGGGGAAAGUAUUAUGUUACGCCGUUCGGAUCUGCACUUCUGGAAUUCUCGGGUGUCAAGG: -0.0733
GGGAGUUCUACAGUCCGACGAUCCUGUGCUACACAUCGUAUGUACCGAAUCGGGGAAAAAAAGGGGAAAGGGGAAAAAAAGGGGAAAGUAUUAUGUUACGCCGUUCGGAUCUGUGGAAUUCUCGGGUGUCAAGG: 1.38
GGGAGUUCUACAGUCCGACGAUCUCAAGUCCUGUGCUACACAUCGUAUGUACCGAAUCGGAAAGGGGAAAGGGAAAGGAAAGUAUUAUGUUACGCCGUUCGGAUCUGCACUUCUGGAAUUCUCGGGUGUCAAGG: -0.885

Sample 5
Target: ABI1, truncated, D143A, DHFR fusion (Arabidopsis thaliana)
Method: DHFR PCA, deep sequencing
Matrix: yeast
Notes: methotrexate growth selection, single substitutions
With: (+)-ABA 0.0091 µM
Baseline: wild-type fitted maximum
Reading: higher = stronger binding
Endpoint: relative binding score
Starting sequence: PYL1, truncated, DHFR fusion (Arabidopsis thaliana); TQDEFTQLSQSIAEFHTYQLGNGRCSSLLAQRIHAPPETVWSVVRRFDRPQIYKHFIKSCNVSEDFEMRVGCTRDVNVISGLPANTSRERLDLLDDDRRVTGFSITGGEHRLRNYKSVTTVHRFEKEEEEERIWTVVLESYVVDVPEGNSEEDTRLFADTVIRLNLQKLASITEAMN; partner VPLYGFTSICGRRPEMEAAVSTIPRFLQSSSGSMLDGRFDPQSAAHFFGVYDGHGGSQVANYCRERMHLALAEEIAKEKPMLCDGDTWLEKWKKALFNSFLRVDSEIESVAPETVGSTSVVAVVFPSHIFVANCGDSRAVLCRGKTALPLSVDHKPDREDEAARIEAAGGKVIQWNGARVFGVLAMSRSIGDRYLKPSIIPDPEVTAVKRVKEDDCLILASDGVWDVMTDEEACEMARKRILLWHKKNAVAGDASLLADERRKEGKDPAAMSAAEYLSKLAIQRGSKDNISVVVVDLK
L91N: 9.12%
I33P: 4.22%
G71M: 1.66%
R155V: 5.37%
R123S: 50.5%
R99M: 94.4%
N61P: -1.57%
Q19N: 32.8%
R90C: -4.93%
A170E: 3.71%
K116P: -1.78%
T86R: 15.1%
N149F: 14.6%
F124D: 16.2%
G107C: 7.74%

Sample 6
Target: RNA binding protein fox-1 homolog 2, RRM domain, GST-SBP tag (RBFOX2, Homo sapiens, UniProt O43251-10, residues 100-194)
Method: RNA Bind-n-Seq
Molecule type: RNA
Matrix: in vitro
Concentration: 365 nM
Notes: natural RNA segment, single round, ends assumed
Baseline: no-protein control
Reading: higher = stronger binding
Endpoint: RBNS enrichment (R)
Residues (chain): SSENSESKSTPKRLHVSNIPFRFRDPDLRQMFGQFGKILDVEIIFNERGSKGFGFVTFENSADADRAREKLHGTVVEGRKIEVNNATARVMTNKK
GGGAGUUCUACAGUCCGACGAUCAGACCCACUAUUUUGAGUAUUUUUUAUAGACUUUAAAUACUGGGUUUUUUUCCUCCUUCAAUCUCAGGCUUUUCUCCAUCUUUUAAGCAGCCUCUGUAACUCCCUUUUGUUGGAAUUCUCGGGUGCCAA: 0.528
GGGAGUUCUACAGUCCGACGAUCCUUCAAAGUACACUUGCAAUGCAGUGUAUGCCUGUAGUUGCUGCUGCCACCGGCAGGGGGCCUUUGCUUACAGGGUCUGCAUAGGUUGUUAUGGAUUUGUGACUUUGGCAUGGAAUUCUCGGGUGCCAA: 0.739
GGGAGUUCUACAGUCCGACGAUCCUUUCUAUCGCUGUGGAUAAGAGAAUCAGCUACUGUGUUAUUCCUUAUCUGAGCCAAACCCCUUAGCAGAAGAAACUGUCCAGCCACACCGAGUGCUCGAAUGGUGUAUUUGGAAUUCUCGGGUGCCAA: 2.41
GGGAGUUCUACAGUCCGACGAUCUAUAAAAACAUGUGCUAAAGCUCUGUCCUCUGUUAGAGGUGCCUUUUAGGAAUACGGGGAGUGAAGGAAGGCCGGCAGGCAUCUCCAUGCAACUAGAUGGUUUGUUUGUUUGGAAUUCUCGGGUGCCAA: 0.598
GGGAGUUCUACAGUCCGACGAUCAUUGUCCUUCCCUGAGGCUCCAUUGCUGCUUGGUGGCCAUUCUCUGCCUUUUUACAGUCACCUGAACAAUGACCCAUCAUCUCUUGCUUGCUUGAAAUCUUGCUGAAAUGUGGAAUUCUCGGGUGCCAA: 0.597
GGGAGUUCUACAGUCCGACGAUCUUCCUGUCCAGGAGACUCAUGAGGACUGUGUGACCUGCACAAGCCCACACCUGGGCAGGCUGUUGGUGUCUCCUUGGUCCUUAGGCAGAUACUCCCCUGAGUCCCCGAUCUGGAAUUCUCGGGUGCCAA: 0.238
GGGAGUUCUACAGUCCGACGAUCCCCUGGGGCAUGGGAGGGUUUCACAAAAUUGCCCACUUGUUAAGGACCCUGACUCUAAUACCACACAAAACAGAACAAAAAUCCAGCAAAGAUAGGAUCGGAGAUACCUGUGGAAUUCUCGGGUGCCAA: 1.09
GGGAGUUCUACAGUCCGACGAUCUGAUGCCUGGUGGUCUUACAGCAUCACUGGCACACUAACGUCGGACUGUGUGAUUGAGCCCAAGAAGCCAGAGACUAUGCAUUUGGCCGCUGCCAAGGGGGGGAUUGCUCUGGAAUUCUCGGGUGCCAA: 0.445
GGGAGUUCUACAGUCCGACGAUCAUGACUCUGUAUUUGACCUGUCUAUCUUCUCCAAGGGCAAAAAUCCUCUAAAUGCCACUCACAUCUUUCAGUCUCACAAUGCACAUCACGGAUAGCUUACUAAUCUUGGAUGGAAUUCUCGGGUGCCAA: 0.765
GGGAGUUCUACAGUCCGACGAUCACAGUUAUUUUAAAACAGUCCACAAGAGGGGUGUCUAGUUUUCAGAGACACUUCAGAAACUUUGCUCAGAAAACAGAUGCUACAGUUUGUGCAGGCAUGCGGUAGGAAAGUGGAAUUCUCGGGUGCCAA: 1.84
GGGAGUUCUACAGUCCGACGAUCAAUGUAUUUUCUUCACCUCUGCUACUCAAGUAGCAUUUACUGUGUCUUUGGUUUGUGCUAGGCCCCCGGGUGUGAAGCACAGACCCCUUCCAGGGGUUUACAGUCUAUUUUGGAAUUCUCGGGUGCCAA: 0.958
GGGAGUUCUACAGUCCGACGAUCCUCUCCUGCAUGUUGACAUGACGGCCCUUUCCAAGGGUGAUGGAGGCUUUCCCAAGCUAAGGGCCUAGGCAGAUCUCUCAGAGCAAGAAGCUAAUGCCGGCAUGUCCCUUUGGAAUUCUCGGGUGCCAA: 8.6

Further values, each from its own experiment
PhoQ, residues 284 288 289 292 302 303 TLASMF
fold induction (PhoP, residues 12 14 15 18 19 LHSVQ (Escherichia coli, UniProt P23836); Sort-seq, item: YFP reporter; E. coli; PhoQ-PhoP variant library, with: 10 µM Mg2+; baseline: high Mg2+ state, higher = stronger signaling): 5.41
